Results pooled from the literature.
Each line is one published result; not all experiments were run side by side. ± gives the spread as reported.
Organism: varicella-zoster virus

The EC50 of O=Cc1cc(Cn2cc(F)c(=O)[nH]c2=O)ccc1O is reported as greater than 100 µM (plaque formation, plaque reduction; HEL fibroblasts, TK+ strain OKA).
The EC50 of CCOP(=O)(OCC)[C@@H]1C[C@H](C(=O)Nc2cc3c4c(cccc4c2)C(=O)N(CCN(CC)CC)C3=O)ON1C (racemic) is reported as 44 µM (viral plaque formation, plaque reduction; HEL, thymidine kinase deficient).
For O=C1/C(=N\NC(=S)NN=Cc2ccccc2)c2ccccc2N1Cc1ccccc1, the EC50 was greater than 100 µM (plaque formation; HEL, TK+).
With Nc1ccn(C[C@@H](CO)OCP(=O)(O)O)c(=O)n1 the EC50 was 0.78 ± 0.32 µM (plaque formation; HEL, TK- 07-1).
The EC50 of Cc1ccc2c(c1)/C(=N/NC(=O)N/N=C1\C(=O)Nc3ccc(C)cc31)C(=O)N2 is reported as greater than 100 µM (plaque formation; HEL, TK-).
Cc1cn(Cc2ccc(O)c(C=O)c2)c(=O)[nH]c1=O gave an EC50 of greater than 100 µM (plaque formation, plaque reduction; HEL fibroblasts, TK- strain 07-1).
For Nc1ncn(CC(OCP(=O)(O)O)C(F)(F)F)c(=O)n1 (centres unmarked), the EC50 was greater than 100 µM (plaque formation; HEL, TK-deficient 07-1).
For O=C(N/N=C1\C(=O)Nc2ccc(Cl)cc21)N/N=C1\C(=O)Nc2ccc(Cl)cc21, the EC50 was greater than 20 µM (plaque formation; HEL, TK+).
For Nc1ncn(C[C@@H](CF)OCP(=O)(O)O)c(=O)n1, the EC50 was greater than 100 µM (plaque formation; HEL, TK-deficient 07-1).
The EC50 of O=c1[nH]c(=O)n([C@H]2C[C@H](O)[C@@H](CO)O2)cc1/C=C/Br is reported as 0.019 ± 0.01 µM (plaque formation; HEL, Oka TK+).
The EC50 of CC(C)OP(=O)(CO[C@H](CF)Cn1cnc(N)nc1=O)OC(C)C is reported as 8.8 ± 0.2 µM (plaque formation; HEL, TK-deficient 07-1).
O=c1nc(NC2CC2)c2ncn(CCOCP(=O)(O)O)c2[nH]1 has an EC50 of greater than 100 µM (plaque formation; HEL, TK- 07-1).
O=c1[nH]c(=O)n([C@H]2C[C@H](O)[C@@H](CO)O2)cc1/C=C/Br gave an EC50 of 143 µM (plaque formation; HEL, TK-).
The EC50 of CCCCCCCCCCCCCCCCOCCCOP(=O)(O)COCCn1cnc2c(=O)[nH]c(=O)[nH]c21 is reported as 0.64 ± 0.77 µM (plaque formation; HEL, TK- 07-1).
Cc1nn(Cc2ccc(O)c(C=O)c2)c(=O)[nH]c1=O gave an EC50 of 47 µM (plaque formation, plaque reduction; HEL fibroblasts, TK+ strain OKA).
For O=C(N/N=C1\C(=O)Nc2ccc([N+](=O)[O-])cc21)N/N=C1\C(=O)Nc2ccc([N+](=O)[O-])cc21, the EC50 was greater than 20 µM (plaque formation; HEL, TK-).
With CCOC(=O)C(C)NP(=O)(COC(CF)CN1CN2C=C(c3ccc([N+](=O)[O-])cc3)NC2=NC1=O)NC(C)C(=O)OCC (centres unmarked) the EC50 was greater than 100 µM (plaque formation; HEL, TK-deficient 07-1).
With O=C1Nc2ccccc2/C1=N/NC(=S)N/N=C1\C(=O)Nc2ccccc21 the EC50 was greater than 20 µM (plaque formation; HEL, TK-).
With O=Cc1cc(Cn2ccc(=O)[nH]c2=O)ccc1O the EC50 was greater than 100 µM (plaque formation, plaque reduction; HEL fibroblasts, TK- strain 07-1).
Nc1ncn(CC(O)C(F)(F)F)c(=O)n1 (centres unmarked) has an EC50 of 126 ± 13.8 µM (plaque formation; HEL, TK-deficient 07-1).

Repeated from above:
O=c1nc(NC2CC2)c2ncn(CCOCP(=O)(O)O)c2[nH]1 has an EC50 of greater than 100 µM (plaque formation; HEL, TK- 07-1).
O=c1[nH]c(=O)n([C@H]2C[C@H](O)[C@@H](CO)O2)cc1/C=C/Br gave an EC50 of 143 µM (plaque formation; HEL, TK-).
